Assay results collected from several papers.
Each numbered part is a random draw from the data of one study; scales do not carry over between parts.

Series 1
Target: Prothrombin, mature alpha-thrombin (F2, Homo sapiens, UniProt P00734)
Technique: aptamer microarray, sandwich
Form: DNA with 2'F-ANA
Matrix: in vitro
Tested at: 200 nM
Notes: whole 15-mer aptamer, many near background
Together with: Cy3 exosite-II aptamer, 400 nM
Reading: higher = stronger binding
Endpoint: mean fluorescence intensity
GGTTGGTGTGGTTGG (2'F-ANA at 3 4 11 15): 620 a.u.
GGTTGGTGTGGTTGG (2'F-ANA at 1 2 6 7 10 11 13 14 15): 68.4 a.u.
GGTTGGTGTGGTTGG (2'F-ANA at 1 7 8 9 12 13): 364 a.u.
GGTTGGTGTGGTTGG (2'F-ANA at 5 6 8 11 13 14): 48 a.u.

Series 2
Target: Histone acetyltransferase KAT6A, winged helix 1, GST fusion (KAT6A, Homo sapiens, UniProt Q92794, residues 1-85)
Technique: protein binding microarray
Form: double-stranded DNA, one strand shown
Matrix: in vitro
Tested at: not given
Notes: 8-mer, flanks averaged, mean of 2 arrays, mostly near background
Relative to: not given
Reading: higher = stronger binding
Endpoint: E-score
Target sequence (chain): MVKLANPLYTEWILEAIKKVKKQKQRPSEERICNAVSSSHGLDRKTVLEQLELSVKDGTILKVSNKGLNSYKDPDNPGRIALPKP
CGCCCTAA: 0.148
AGCGCCGA: 0.405
AGGGAGCA: -0.202
CAAACACG: 0.14
GACGCAGC: 0.0772

Series 3
Target: Interferon regulatory factor 5, full length, phosphomimetic (IRF5, Homo sapiens, UniProt Q13568-2, residues 1-514, K96S/S451D/S453D/S456D/S462D)
Technique: protein-binding microarray
Form: double-stranded DNA, one strand shown
Matrix: in vitro
Tested at: 250 nM
Notes: 60-bp whole probe
Together with: salmon DNA 0.4 mg/ml
Relative to: random background probes
Reading: higher = stronger binding
Endpoint: log fluorescence
Shared flanks, not repeated: GCCTAGCAC … GTCTTGATTCGCTTGACGCTGCTG
TTCATTATTGTCTTCCCCATGTGCTAG: 1.03 z-score
GACGGTATCGAGTTTCGGGACGTGCTA: 5.82 z-score
GTCCTTTTCTTTACTGATGGGTGCTAG: 0.427 z-score
TTAGATATCAGTATCGGTTAGTGCTAG: 8.11 z-score
GAAGGTCTCCTTATCCTGACGTGCTAG: -0.415 z-score
AGAAACTTGTATTTGTCCCTGTGCTAG: 1.93 z-score

Further values, each from its own experiment
PhoQ, residues 284 288 289 292 302 303 NLMGRA — fold induction (PhoP, residues 12 14 15 18 19 NQAHL (Escherichia coli, UniProt P23836); Sort-seq, measured: YFP reporter; E. coli; PhoQ-PhoP variant library, together with: 10 µM Mg2+; relative to: high Mg2+ state, higher = stronger signaling): 1.72

For quick reference, copied from above (series 3):
GTCCTTTTCTTTACTGATGGGTGCTAG: 0.427 z-score
